Assay results pooled from the literature.
Protocols differ between the studies behind these lines. Numbers after ± are the reported error. No end group written: not given here. *: point of attachment.
ELANE: Neutrophil elastase (ELANE, Homo sapiens, UniProt P08246)
Sequence of UniProt P08246 (whole entry, looked up): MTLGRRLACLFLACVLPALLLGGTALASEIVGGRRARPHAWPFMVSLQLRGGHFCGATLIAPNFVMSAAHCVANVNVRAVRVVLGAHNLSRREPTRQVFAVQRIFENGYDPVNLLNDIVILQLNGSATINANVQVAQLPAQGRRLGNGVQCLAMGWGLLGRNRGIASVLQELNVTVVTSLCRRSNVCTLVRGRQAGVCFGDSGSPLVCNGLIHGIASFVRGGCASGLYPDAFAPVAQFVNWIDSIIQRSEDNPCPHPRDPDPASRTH
B1: enzyme (Bacillus pumilus, UniProt A8FFI9); chain EARSIAWSVDEFFKNREGTFVIQEVKEKSPWVYNKKRAKERFAPQSTFKVANALIGLQTGAVRDEYDIKYWDGVKREIDNWNRDHTLGSGMRDSVVWYYQAMARDIGEERMNHWVKAIHYGNKDISGGIDQFWLSSTLRISPIEQVRFLKQLYEETLPFDLKNMRTVKRMMVQEEEKHATLYGKTGSGSDIGWYVGFIKHEHKTYILATNIKGTGIEAKDITYRILKKYHLMEASV
Sequence of UniProt P23141 (whole entry, looked up): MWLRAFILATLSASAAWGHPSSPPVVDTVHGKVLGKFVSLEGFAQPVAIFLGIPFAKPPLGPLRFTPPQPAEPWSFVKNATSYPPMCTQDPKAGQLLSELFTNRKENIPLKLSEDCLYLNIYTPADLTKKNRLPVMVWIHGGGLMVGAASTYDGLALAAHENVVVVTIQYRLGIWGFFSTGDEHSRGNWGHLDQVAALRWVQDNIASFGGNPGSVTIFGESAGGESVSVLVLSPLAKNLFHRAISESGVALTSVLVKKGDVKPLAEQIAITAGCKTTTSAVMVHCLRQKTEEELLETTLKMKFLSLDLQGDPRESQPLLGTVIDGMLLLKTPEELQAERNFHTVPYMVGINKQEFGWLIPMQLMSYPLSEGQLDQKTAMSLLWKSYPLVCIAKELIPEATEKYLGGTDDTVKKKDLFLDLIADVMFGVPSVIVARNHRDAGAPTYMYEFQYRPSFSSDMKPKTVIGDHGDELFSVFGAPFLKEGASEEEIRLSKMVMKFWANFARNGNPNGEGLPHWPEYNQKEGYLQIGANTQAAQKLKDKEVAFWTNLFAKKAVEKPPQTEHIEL
Sequence of UniProt P00760 (whole entry, looked up): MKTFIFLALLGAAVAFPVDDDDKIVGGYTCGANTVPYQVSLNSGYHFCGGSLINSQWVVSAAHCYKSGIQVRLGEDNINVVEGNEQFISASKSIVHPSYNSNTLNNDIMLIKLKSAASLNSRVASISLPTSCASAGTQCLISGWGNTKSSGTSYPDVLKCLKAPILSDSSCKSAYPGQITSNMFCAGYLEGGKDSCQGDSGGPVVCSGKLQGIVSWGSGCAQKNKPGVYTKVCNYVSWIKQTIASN
Sequence of UniProt O60656 (whole entry, looked up): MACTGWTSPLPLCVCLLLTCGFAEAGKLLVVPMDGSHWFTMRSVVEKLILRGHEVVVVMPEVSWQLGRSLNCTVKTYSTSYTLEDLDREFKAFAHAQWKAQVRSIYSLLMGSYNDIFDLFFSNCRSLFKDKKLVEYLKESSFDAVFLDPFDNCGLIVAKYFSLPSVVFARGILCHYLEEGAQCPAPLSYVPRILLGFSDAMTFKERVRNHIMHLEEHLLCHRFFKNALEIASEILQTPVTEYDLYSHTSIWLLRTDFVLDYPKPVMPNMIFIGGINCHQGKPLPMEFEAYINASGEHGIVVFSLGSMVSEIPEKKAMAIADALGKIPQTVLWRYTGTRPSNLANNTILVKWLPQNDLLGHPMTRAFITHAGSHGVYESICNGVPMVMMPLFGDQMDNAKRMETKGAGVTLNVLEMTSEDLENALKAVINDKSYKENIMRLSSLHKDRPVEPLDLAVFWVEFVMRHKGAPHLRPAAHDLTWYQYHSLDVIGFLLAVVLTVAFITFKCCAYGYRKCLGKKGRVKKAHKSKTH

| Substance | target or system | assay | test system | setting | quantity | result |
| --- | --- | --- | --- | --- | --- | --- |
| Insulin human | – | ELISA | rat, brainstem | intranasal, 20 µg per nostril, 60 min | concentration | 185 ± 98.5 pg/mg tissue |
| GSS(Octanoyl)FLSPEHQRVQQRKESKKPPAKLQPR (ghrelin; Octanoyl = CCCCCCCC(=O)*; sequence looked up) | CES1 (Homo sapiens, UniProt P23141) | HPLC-UV | peptide | 1 mg/mL, 15 min, pH 7.4, 37 °C | remaining compound | 17.2 ± 4.9% |
| B1 (enzyme) | O=C(Cc1cccs1)N[C@@H]1C(=O)N2C(C(=O)O)=C(/C=C/c3ccc([N+](=O)[O-])cc3[N+](=O)[O-])CS[C@H]12 | steady-state kinetics | – | pH 7 | kcat | 830 ± 30 s⁻¹ |
| LIYWAST | – | – | peptide, human polyclonal IgM RF MCC | concentration not given, 5 µg/mL mAb II-481 coated, together with: RF at 50% max binding concentration | inhibition | 8% |
| insulin human | Serine protease 1 (PRSS1, Bos taurus, UniProt P00760) | substrate, RP-HPLC | – | 1:2 enzyme to substrate ratio, pH 7.4, 37 °C | half-life | 7 min |
| NCC(F)(F)C(F)(F)C(F)(F)C(F)(F)F | ELANE | substrate | – | pH 7.5, together with: 20 pM enzyme | kcat | 0.89 s⁻¹ |
| rnpA F107W (Bacillus subtilis) | – | NMR, item: His22 | – | 25 °C, 0.50 M NaCl, folded, sulfate-bound, numbering of the source, together with: sulfate 20 mM | pKa | 6.11 |
| CARLSLSWRGLTLCPSK (68Ga-DOTA-labelled) | mouse VAP-1 | ex vivo biodistribution | peptide, wild-type mouse, B16 melanoma xenograft, lung | 60 min, together with: 500-fold excess unlabelled DOTA-peptide | uptake | 0.15 ± 0.01 SUV |
| YFCHQYL | – | – | peptide, human polyclonal IgM RF SOR | concentration not given, 5 µg/mL mAb II-481 coated, together with: RF at 50% max binding concentration | inhibition | 0% |
| NCC(F)(F)C(F)(F)C(F)(F)C(F)(F)C(F)(F)C(F)(F)F | ELANE | cleavage, substrate | – | pH 7.5 | Km | 56.1 µM |
| insulin lispro | – | – | human, plasma | subcutaneous pump | tmax | 63 min |
| UGT1A9 (Homo sapiens, UniProt O60656) | Oc1ccc(F)cc1 | steady-state kinetics | – | pH 7.4, 37 °C | Km | 112 µM |
| CC(C)[C@H](NC(=O)[C@@H]1CCCN1C(=O)[C@H](CCCNC(=N)N)NC(=O)[C@H](CS)NC(=O)[C@H](Cc1c[nH]c2ccccc12)NC(=O)[C@H](CCCNC(=N)N)NC(=O)[C@@H](Cc1ccccc1)NC(=O)[C@H](Cc1c[nH]cn1)NC(=O)[C@H](CCC(=O)O)NC(=O)[C@H](CS)NC(=O)[C@H](CS)NC(=O)[C@H](CCCCN)NC(=O)[C@@H]1CC(=O)N[C@@H](CCCNC(=N)N)C(=O)N[C@@H](C)C(=O)N[C@@H](CC(=O)O)C(=O)N[C@H](Cc2ccc(O)cc2)C(=O)N1)C(N)=O [technetium-99m labelled] | – | – | C57 mice, muscle | intravenous, 0.037 MBq, 24 h | tissue uptake | 0.08 ± 0.04 %ID/g |
